Assay results pooled from the literature.
Parts stem from different laboratories: compare values within a part only. Values joined by “and” are separate records of one study, mostly repeats; a detail may differ.
Chain of UniProt P78362 (whole entry, looked up): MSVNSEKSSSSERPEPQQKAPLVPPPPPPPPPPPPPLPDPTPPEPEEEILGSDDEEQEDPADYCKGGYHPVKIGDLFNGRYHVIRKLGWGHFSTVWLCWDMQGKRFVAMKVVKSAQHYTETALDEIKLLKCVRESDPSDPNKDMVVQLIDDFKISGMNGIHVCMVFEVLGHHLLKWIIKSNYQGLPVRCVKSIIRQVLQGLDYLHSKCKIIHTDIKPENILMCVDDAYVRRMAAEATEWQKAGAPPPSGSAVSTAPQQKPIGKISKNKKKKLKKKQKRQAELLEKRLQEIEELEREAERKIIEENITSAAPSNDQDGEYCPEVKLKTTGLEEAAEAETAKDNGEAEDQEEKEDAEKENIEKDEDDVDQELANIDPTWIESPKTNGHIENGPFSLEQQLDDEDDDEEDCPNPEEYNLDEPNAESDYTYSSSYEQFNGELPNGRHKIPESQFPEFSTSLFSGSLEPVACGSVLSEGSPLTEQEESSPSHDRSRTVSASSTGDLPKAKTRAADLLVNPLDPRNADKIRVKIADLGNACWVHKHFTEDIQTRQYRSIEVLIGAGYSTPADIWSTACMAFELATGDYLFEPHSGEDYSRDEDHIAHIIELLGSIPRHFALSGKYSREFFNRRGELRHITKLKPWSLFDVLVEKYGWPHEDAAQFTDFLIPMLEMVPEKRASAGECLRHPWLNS
Chain of UniProt O76039 (whole entry, looked up): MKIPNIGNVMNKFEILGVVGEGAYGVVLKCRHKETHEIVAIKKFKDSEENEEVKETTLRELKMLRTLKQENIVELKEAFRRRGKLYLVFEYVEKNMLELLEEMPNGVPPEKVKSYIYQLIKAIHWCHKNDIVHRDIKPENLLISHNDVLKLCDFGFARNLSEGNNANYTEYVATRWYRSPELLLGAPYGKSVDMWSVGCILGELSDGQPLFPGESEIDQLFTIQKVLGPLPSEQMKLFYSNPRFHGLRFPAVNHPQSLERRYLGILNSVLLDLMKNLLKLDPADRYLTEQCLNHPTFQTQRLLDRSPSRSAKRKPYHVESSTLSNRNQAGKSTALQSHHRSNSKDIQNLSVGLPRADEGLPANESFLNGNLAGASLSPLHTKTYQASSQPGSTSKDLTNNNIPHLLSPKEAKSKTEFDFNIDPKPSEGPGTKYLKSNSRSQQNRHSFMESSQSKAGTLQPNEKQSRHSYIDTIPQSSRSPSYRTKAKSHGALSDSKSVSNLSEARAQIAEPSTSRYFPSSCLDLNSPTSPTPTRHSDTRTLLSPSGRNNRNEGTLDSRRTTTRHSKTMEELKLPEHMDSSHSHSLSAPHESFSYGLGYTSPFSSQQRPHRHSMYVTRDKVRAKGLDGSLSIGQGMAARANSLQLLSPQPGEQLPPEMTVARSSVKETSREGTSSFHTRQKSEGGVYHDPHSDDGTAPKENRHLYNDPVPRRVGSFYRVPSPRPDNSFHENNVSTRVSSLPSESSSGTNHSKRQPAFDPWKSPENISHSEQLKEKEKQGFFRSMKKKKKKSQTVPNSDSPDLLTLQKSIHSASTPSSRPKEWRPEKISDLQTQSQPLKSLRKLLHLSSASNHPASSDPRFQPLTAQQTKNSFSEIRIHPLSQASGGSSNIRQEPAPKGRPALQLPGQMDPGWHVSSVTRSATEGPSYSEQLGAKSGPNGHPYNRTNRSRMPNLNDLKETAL
Chain of UniProt O14936 (whole entry, looked up): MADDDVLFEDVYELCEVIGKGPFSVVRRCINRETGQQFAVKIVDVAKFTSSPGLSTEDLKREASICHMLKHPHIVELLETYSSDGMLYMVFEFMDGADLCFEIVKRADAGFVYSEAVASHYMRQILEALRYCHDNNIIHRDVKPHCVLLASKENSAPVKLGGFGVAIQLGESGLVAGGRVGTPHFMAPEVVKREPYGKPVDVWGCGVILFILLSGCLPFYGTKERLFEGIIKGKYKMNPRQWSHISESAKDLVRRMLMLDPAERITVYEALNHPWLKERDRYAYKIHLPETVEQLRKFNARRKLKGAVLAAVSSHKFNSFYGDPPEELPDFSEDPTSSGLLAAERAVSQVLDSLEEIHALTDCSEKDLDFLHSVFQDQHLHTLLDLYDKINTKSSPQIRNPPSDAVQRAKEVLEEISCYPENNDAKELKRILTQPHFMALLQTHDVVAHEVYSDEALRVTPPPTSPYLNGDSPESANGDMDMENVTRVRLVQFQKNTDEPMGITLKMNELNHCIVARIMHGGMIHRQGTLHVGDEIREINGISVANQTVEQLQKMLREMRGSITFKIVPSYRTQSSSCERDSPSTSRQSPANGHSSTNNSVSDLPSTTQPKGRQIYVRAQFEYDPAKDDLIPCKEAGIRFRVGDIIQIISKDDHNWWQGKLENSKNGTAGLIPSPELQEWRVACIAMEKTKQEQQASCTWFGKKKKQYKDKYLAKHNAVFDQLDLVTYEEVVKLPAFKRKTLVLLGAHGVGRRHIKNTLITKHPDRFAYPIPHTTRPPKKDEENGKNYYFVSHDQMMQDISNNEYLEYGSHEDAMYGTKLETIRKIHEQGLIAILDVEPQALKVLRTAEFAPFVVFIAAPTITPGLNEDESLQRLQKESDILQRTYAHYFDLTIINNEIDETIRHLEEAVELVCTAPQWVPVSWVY
Chain of UniProt Q96J92 (whole entry, looked up): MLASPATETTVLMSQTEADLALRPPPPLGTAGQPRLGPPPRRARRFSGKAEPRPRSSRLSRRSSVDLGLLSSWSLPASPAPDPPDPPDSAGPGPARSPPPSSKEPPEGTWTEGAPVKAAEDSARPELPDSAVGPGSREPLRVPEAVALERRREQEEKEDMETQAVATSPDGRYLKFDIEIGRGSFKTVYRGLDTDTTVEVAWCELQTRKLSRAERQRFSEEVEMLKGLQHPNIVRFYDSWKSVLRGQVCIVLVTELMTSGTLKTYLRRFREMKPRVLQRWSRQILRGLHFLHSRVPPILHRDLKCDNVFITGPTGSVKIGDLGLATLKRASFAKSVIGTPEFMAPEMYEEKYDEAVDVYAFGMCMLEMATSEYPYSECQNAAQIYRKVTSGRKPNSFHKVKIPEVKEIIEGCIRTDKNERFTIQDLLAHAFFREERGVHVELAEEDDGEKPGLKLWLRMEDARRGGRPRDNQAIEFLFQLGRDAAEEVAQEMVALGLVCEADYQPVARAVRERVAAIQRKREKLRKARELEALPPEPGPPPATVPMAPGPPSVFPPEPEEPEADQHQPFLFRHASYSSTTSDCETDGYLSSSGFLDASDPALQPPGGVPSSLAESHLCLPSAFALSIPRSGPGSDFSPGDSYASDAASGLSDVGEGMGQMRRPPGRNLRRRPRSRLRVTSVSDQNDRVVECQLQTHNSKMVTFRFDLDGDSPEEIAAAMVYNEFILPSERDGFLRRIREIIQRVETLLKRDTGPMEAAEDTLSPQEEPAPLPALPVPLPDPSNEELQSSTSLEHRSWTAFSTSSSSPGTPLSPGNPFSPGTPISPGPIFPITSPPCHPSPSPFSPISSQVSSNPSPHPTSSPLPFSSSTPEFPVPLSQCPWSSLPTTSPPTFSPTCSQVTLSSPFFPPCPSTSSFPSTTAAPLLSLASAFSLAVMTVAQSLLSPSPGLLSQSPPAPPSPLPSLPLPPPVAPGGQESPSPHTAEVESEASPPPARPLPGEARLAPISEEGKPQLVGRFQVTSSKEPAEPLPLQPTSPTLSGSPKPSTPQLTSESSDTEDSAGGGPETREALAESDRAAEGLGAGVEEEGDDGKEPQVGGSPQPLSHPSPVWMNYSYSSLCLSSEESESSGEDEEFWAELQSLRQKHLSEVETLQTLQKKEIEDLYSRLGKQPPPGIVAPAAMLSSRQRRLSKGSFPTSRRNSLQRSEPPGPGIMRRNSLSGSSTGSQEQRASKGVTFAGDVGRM
Chain of UniProt P51812 (whole entry, looked up): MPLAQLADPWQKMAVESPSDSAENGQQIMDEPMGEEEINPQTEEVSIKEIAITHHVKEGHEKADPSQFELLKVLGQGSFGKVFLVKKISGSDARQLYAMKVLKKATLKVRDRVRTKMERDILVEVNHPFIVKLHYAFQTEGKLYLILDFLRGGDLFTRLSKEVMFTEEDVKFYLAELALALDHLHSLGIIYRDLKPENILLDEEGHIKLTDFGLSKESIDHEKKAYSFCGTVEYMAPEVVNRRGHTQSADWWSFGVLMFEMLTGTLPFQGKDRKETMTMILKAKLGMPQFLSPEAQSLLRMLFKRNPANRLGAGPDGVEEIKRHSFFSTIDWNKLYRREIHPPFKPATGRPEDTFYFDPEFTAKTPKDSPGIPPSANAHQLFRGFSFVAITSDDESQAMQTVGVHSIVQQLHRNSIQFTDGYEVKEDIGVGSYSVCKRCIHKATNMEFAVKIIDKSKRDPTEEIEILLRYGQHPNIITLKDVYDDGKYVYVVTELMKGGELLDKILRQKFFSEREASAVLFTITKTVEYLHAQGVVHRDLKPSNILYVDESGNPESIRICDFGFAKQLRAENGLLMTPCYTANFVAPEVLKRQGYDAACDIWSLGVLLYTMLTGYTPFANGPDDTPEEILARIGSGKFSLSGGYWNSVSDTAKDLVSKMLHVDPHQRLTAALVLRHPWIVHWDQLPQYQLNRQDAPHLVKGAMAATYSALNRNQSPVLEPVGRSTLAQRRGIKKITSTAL
Chain of UniProt P49840 (whole entry, looked up): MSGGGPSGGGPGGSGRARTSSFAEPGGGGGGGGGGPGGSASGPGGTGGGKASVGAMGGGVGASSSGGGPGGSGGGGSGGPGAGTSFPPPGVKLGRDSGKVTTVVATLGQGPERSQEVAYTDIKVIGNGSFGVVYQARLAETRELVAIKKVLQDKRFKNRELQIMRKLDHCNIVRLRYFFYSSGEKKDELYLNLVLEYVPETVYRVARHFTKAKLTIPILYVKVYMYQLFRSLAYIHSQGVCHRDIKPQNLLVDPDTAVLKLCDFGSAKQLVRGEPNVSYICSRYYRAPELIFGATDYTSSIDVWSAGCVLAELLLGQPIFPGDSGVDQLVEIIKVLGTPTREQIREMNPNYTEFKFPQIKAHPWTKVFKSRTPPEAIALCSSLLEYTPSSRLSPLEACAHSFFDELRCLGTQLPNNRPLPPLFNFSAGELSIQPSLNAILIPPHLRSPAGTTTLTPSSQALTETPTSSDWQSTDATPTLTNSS

Study 1 — concentration: 1 µM
SMILES: C=CC(=O)N1CCC([C@@H]2CCNc3c(C(N)=O)c(-c4ccc(Oc5ccccc5)cc4)nn32)CC1
target	observed	mode	inhibition
Ribosomal protein S6 kinase alpha-3, N-terminal kinase domain (RPS6KA3, Homo sapiens, UniProt P51812)		inhibitor	30%
Calcium/calmodulin-dependent protein kinase type 1G (CAMK1G, Homo sapiens, UniProt Q96NX5)	enzyme activity		6%
SRSF protein kinase 2 (SRPK2, Homo sapiens, UniProt P78362)	enzyme activity	inhibitor	7%
Myosin-IIIa (MYO3A, Homo sapiens, UniProt Q8NEV4)	cell-free assay		34%
Serine/threonine-protein kinase Nek2 (NEK2, Homo sapiens, UniProt P51955)	enzyme activity	inhibitor	11%
Phosphatidylinositol 4,5-bisphosphate 3-kinase catalytic subunit beta isoform (PIK3CB, Homo sapiens, UniProt P42338)	enzyme activity	inhibitor	6%
Microtubule-associated serine/threonine-protein kinase 1 (MAST1, Homo sapiens, UniProt Q9Y2H9)	enzyme activity	inhibitor	12%
Dual specificity protein kinase CLK2 (CLK2, Homo sapiens, UniProt P49760)	enzyme activity	inhibitor	1%
Mitogen-activated protein kinase kinase kinase kinase 1 (MAP4K1, Homo sapiens, UniProt Q92918)	enzyme activity	inhibitor	0%

Study 2 — observed: cell-free assay; technique: competition with immobilised ligand; concentration: 1 µM
Compound: CCCOc1ccc([C@H]2[C@H](C(=O)O)[C@@H](c3ccc4c(c3)OCO4)CN2CC(=O)Nc2c(CC)cccc2CC)cc1
target	remaining binding
Cyclin-dependent kinase-like 5 (CDKL5, Homo sapiens, UniProt O76039)	85%
Dual specificity protein kinase CLK4 (CLK4, Homo sapiens, UniProt Q9HAZ1)	100%
Tyrosine-protein kinase ABL1, phosphorylated (ABL1, Homo sapiens, UniProt P00519, Y253F)	75%
Protein kinase C iota type (PRKCI, Homo sapiens, UniProt P41743)	78%
Serine/threonine-protein kinase WNK4 (WNK4, Homo sapiens, UniProt Q96J92)	81%
Glycogen synthase kinase-3 alpha (GSK3A, Homo sapiens, UniProt P49840)	86%
Casein kinase I isoform epsilon (CSNK1E, Homo sapiens, UniProt P49674)	100%
Serine/threonine-protein kinase TBK1 (TBK1, Homo sapiens, UniProt Q9UHD2)	91%
Serine/threonine-protein kinase Nek5 (NEK5, Homo sapiens, UniProt Q6P3R8)	29%
SRSF protein kinase 2 (SRPK2, Homo sapiens, UniProt P78362)	96%
Ribosomal protein S6 kinase alpha-2, N-terminal kinase domain (RPS6KA2, Homo sapiens, UniProt Q15349)	93%
Serine/threonine-protein kinase RIO1 (RIOK1, Homo sapiens, UniProt Q9BRS2)	86%
Peripheral plasma membrane protein CASK (CASK, Homo sapiens, UniProt O14936)	77%
Serine/threonine-protein kinase MRCK alpha (CDC42BPA, Homo sapiens, UniProt Q5VT25)	94%

Study 3 — observed: binding; mode: competitor; technique: NanoBRET; cells: HEK293
SMILES: CCC(=O)N1CCN(c2nc(OC[C@@H]3CCCN3C)nc3c2CCN(c2cccc4cccc(Cl)c24)C3)C[C@@H]1CC#N
KRAS Q61H: GTPase KRas (KRAS, Homo sapiens, UniProt P01116, Q61H)
target	concentration	normalized BRET
GTPase KRas (KRAS, Homo sapiens, UniProt P01116, Q61R)	1.24 µM	99.6% and 85.6% and 106%
GTPase KRas (KRAS, Homo sapiens, UniProt P01116, G13D)	15.2 nM	93.9% and 94.6% and 109%
KRAS Q61H	412 nM	81% and 70.1% and 68.9%
KRAS Q61H	45.7 nM	90.3% and 97.5% and 85.6%
GTPase KRas (KRAS, Homo sapiens, UniProt P01116, Q61L)	45.7 nM	94.3% and 103% and 91.1%

Study 4 — cell line: mouse MPNST tumor cells; technique: high-content immunofluorescence imaging; refers to: nuclear SOX9; concentration: 10 µM; time: 12 h; setting: mean of 2 replicates; relative to: DMSO control; reading: higher = more nuclear SOX9
Compound	nuclear SOX9 intensity
C[C@]12C=CC(=O)C=C1CC[C@H]1[C@@H]3C[C@@H](O)[C@](O)(C(=O)CO)[C@@]3(C)C[C@H](O)[C@@]12F	89 % of DMSO
N[C@@H](CC(=O)N1CCn2c(nnc2C(F)(F)F)C1)Cc1cc(F)c(F)cc1F	91.9 % of DMSO and 117 % of DMSO
CN(C)CCOC(C)(c1ccccc1)c1ccccn1 (stereo not drawn)	108 % of DMSO
CC[C@H]1OC(=O)[C@H](C)[C@@H](O[C@H]2C[C@@](C)(OC)[C@@H](O)[C@H](C)O2)[C@H](C)[C@@H](O[C@@H]2O[C@H](C)C[C@H](N(C)C)[C@H]2O)[C@](C)(O)C[C@@H](C)[C@@H]2N[C@@H](COCCOC)O[C@H]([C@H]2C)[C@]1(C)O	117 % of DMSO
Cc1ccc(S(=O)(=O)N2CCCC2c2ccc(F)cc2)cc1 (stereo not drawn)	113 % of DMSO

A few entries again (study 4):
Compound	nuclear SOX9 intensity
CN(C)CCOC(C)(c1ccccc1)c1ccccn1 (stereo not drawn)	108 % of DMSO
C[C@]12C=CC(=O)C=C1CC[C@H]1[C@@H]3C[C@@H](O)[C@](O)(C(=O)CO)[C@@]3(C)C[C@H](O)[C@@]12F	89 % of DMSO
Cc1ccc(S(=O)(=O)N2CCCC2c2ccc(F)cc2)cc1 (stereo not drawn)	113 % of DMSO
